{"data": "Assay results from different studies", "note": "Every numbered part comes from another study and shows a few of its results, in no order.", "sequence of UniProt P05771 (whole entry, looked up)": "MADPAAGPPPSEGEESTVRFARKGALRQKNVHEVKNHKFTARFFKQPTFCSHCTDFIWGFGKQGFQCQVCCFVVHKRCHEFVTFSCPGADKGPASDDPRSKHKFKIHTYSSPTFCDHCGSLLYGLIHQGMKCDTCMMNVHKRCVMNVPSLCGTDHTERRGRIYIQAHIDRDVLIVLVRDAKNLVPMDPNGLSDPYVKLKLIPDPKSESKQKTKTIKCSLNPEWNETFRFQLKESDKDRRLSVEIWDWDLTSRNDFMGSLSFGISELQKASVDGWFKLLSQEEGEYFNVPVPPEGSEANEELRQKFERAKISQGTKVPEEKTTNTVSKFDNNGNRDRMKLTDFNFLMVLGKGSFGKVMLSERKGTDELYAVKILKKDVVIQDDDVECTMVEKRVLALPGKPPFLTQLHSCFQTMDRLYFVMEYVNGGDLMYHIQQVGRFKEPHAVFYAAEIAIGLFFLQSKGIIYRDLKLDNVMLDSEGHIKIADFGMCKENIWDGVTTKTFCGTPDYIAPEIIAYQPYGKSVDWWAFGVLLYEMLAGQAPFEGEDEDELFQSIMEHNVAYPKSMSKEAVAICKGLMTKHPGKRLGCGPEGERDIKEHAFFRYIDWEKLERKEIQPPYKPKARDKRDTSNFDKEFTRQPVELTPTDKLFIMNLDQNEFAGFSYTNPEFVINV"}
{"data": "Set 1", "target": "Phosphate system positive regulatory protein PHO4, full length, GST-tagged (PHO4, Saccharomyces cerevisiae, UniProt P07270, residues 1-312)", "method": "competition protein-binding microarray", "molecule type": "double-stranded DNA, one strand shown", "medium": "in vitro", "tested at": "2 µM", "notes": "whole 60-bp probe, lowest competitor level", "added": "Cbf1 competitor, 0.05 µM", "reading": "higher = stronger binding", "all sequences stand within": "… GTCTTGATTCGCTTGACGCTGCTG", "Residues (chain)": "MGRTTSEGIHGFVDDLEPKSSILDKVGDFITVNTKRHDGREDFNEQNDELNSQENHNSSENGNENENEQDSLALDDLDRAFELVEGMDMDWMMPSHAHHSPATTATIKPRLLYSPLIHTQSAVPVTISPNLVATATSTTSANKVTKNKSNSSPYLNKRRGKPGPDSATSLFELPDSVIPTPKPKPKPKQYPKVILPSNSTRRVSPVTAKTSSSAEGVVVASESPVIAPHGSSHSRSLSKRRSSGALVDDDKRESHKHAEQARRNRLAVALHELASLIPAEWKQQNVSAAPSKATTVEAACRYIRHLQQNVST"}
{"Oligonucleotide": "TCTAATCTCTAAGTACACGTGCAAATGGACCTATCA", "fluorescence intensity [a.u.]": 16800}
{"Oligonucleotide": "GTCTGCAAGTTTCTGCCCGTGCTTTTGTGTACCAAT", "fluorescence intensity [a.u.]": 9110}
{"Oligonucleotide": "ATTATCTAGGTGCTACACGTGTTGGGACAGACTTAT", "fluorescence intensity [a.u.]": 20700}
{"Oligonucleotide": "CTTTCCCGATCTTGTTGAGTGGGTGTAGCACATTTG", "fluorescence intensity [a.u.]": 4700}
{"Oligonucleotide": "CTAACGAAGGTTTGTCACGGAACTTACAAGCCAAGT", "fluorescence intensity [a.u.]": 3370}
{"Oligonucleotide": "ATCGAGGGAAAAAAAGTTGTGACGGAGGGGAAGGTT", "fluorescence intensity [a.u.]": 3890}
{"Oligonucleotide": "AAATTACTAAGTTGTAGCGTGGGTGACGCCGTATGA", "fluorescence intensity [a.u.]": 7140}
{"Oligonucleotide": "AAACGGGAACGAGCGTTCGTGCGGAGTGATGGTTAG", "fluorescence intensity [a.u.]": 7120}
{"data": "Set 2", "target": "Ras GTPase-activating protein-binding protein 1, RRM domain (G3BP1, Homo sapiens, UniProt Q13283)", "method": "RNA Bind-n-Seq", "molecule type": "RNA", "medium": "in vitro", "tested at": "1 µM", "notes": "whole 134-nt RNA, ends assumed", "added": "150 mM KCl", "relative to": "input library", "reading": "higher = stronger binding", "all sequences stand within": "GGGAGUUCUACAGUCCGACGAUC … UGGAAUUCUCGGGUGUCAAGG", "sequence of UniProt Q13283 (whole entry, looked up)": "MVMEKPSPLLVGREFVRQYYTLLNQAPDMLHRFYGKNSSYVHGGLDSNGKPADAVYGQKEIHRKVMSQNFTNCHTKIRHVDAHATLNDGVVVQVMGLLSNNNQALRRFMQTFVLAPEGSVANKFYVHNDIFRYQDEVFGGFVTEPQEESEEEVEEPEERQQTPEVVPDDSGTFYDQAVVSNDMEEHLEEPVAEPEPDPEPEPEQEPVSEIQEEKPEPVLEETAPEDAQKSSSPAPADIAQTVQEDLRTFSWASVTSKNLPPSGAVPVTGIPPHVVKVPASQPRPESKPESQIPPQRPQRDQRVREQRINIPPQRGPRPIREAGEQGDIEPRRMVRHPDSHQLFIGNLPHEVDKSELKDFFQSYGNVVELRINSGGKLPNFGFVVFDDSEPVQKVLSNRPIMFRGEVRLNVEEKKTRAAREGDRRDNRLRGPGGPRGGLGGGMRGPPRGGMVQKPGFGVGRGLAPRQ"}
{"Oligonucleotide": "UAACUUUAGAGGAGGAUCUGAUGGAUAUGGCAGUGGACGUGGAUUUGGGGAUGGCUAUAAUGGGUAUGGAGGAGGACCUGGAUGUGGCAA", "log2 enrichment": -0.407}
{"Oligonucleotide": "UAACUUUAGAGGAGGAUCUGAUGGAUAUGGCAGUGGACGUGGAUUUGGGGAUGGCUAUAUUGGGUAUGGAGGAGGACCUGGAGGUGGCAA", "log2 enrichment": -0.334}
{"Oligonucleotide": "UCAAGUCCUGUGCUACACAUCGUAUGUACCGAAUCGGGGCCCGGCCCGGGCCCGGAAAGUAUUAUGUUACGCCGUUCGGAUCUGCACUUC", "log2 enrichment": -0.597}
{"Oligonucleotide": "GUUAAUUCCACCAUCCCCAUCACAGCAGAAGUUUUCAAGAAGCAUGGAGUGUACAACCCCAACAAAAUCUUCGGCGUGACGACCCUGGAC", "log2 enrichment": 0.039}
{"Oligonucleotide": "GUCCUGUGCUACACAUCGUAUGUACCGAAUCGGGCCCCCCGGCCCCCCGGCCCCCCGGGAAAGUAUUAUGUUACGCCGUUCGGAUCUGCA", "log2 enrichment": -0.453}
{"Oligonucleotide": "UUCAAGGCCAUGAAGGACCUGUUUAUGCGGUGCAUGCUGUUUACCAGAGGAGGACAUCAGAUCCUGCAUUAUGUACACUGAUCGUUUCUG", "log2 enrichment": -0.305}
{"Oligonucleotide": "GUCCUGUGCUACACAUCGUAUGUACCGAAUCGGGGUUUUUUUGGGGUUUGGGGAGGGGAAAGUAUUAUGUUACGCCGUUCGGAUCUGCAC", "log2 enrichment": 0.863}
{"Oligonucleotide": "UCCUGUGCUACACAUCGUAUGUACCGAAUCGGGAAAAAAGGGGAAAAAAGGGAAAAAAGGAAAGUAUUAUGUUACGCCGUUCGGAUCUGC", "log2 enrichment": 0.00164}
{"data": "Set 3", "target": "Sal-like protein 4, full length isoform B (SALL4, Homo sapiens, UniProt Q9UJQ4-2, residues 1-616)", "method": "universal PBM", "molecule type": "double-stranded DNA, one strand shown", "medium": "in vitro", "tested at": "not given", "notes": "8-mer, flanks averaged, mean of replicates", "reading": "higher = stronger binding", "Construct (chain)": "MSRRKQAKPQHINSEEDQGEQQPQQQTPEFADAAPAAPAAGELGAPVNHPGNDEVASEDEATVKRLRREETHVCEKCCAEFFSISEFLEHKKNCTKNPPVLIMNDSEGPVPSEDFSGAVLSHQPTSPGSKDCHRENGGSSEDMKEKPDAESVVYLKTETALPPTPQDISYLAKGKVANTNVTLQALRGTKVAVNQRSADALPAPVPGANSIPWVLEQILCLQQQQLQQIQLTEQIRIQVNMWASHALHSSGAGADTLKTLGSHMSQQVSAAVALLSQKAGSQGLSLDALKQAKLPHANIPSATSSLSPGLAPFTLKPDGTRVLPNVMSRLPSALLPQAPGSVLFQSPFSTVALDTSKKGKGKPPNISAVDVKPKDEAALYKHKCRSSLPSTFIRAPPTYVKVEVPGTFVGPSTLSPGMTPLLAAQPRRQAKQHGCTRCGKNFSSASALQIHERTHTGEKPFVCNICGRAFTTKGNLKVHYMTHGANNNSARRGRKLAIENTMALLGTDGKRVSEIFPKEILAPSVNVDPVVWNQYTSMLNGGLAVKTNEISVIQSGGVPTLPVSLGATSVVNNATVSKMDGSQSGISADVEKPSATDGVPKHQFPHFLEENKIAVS"}
{"Oligonucleotide": "GACACGCC", "E-score": -0.343}
{"Oligonucleotide": "CGACGAGC", "E-score": -0.232}
{"Oligonucleotide": "GTAGTCAC", "E-score": -0.0581}
{"Oligonucleotide": "CACCCAGA", "E-score": -0.112}
{"Oligonucleotide": "GGCACTAA", "E-score": -0.0583}
{"Oligonucleotide": "GAGAGGGA", "E-score": -0.144}
{"Oligonucleotide": "CGCGTGTC", "E-score": -0.157}
{"Oligonucleotide": "CTCACGAC", "E-score": -0.209}
{"data": "Single results of other studies"}
{"Compound": "O=S(=O)(c1cccc2cnccc12)N1CCCNCC1", "target": "Protein kinase C beta type, isoform beta-I (PRKCB, Homo sapiens, UniProt P05771)", "effect on": "enzyme activity", "mode": "inhibitor", "tested at": "0.5 µM", "relative to": "control", "endpoint": "remaining activity", "value": "94.6%"}
{"note": "A few entries again (set 3):"}
{"Oligonucleotide": "CGACGAGC", "E-score": -0.232}
{"Oligonucleotide": "GTAGTCAC", "E-score": -0.0581}
{"Oligonucleotide": "CACCCAGA", "E-score": -0.112}
{"Oligonucleotide": "GGCACTAA", "E-score": -0.0583}
